Measurements from different studies.
Each line is one published result; not all experiments were run side by side. ± gives the spread as reported.
Cell line: NCI-H460

O=C(NCCCCCNc1n[n+]([O-])c2ccccc2[n+]1[O-])C(F)(F)F
IC50 (cytotoxicity, MTT; 10% FBS medium; 6 h + 18 h, hypoxia 3% O2): 43 ± 12.6 µM

CCC1=C(CC)C2=[N+]3C1=Cc1c(CC)c(CC)c4[n]1[Ir-3]31([C]#[N+]c3ccc(OC)cc3)([C]#[N+]c3ccc(OC)cc3)[n]3c(c(CC)c(CC)c3=CC3=[N+]1C(=C4)C(CC)=C3CC)=C2.F[B-](F)(F)F
IC50 (cytotoxicity; 1 h, with: visible light 2.8 mW/cm2): 0.12 ± 0.02 µM

CCOC12C(O)C(OC)C3(O)CC(C1C3OC(=O)c1ccccc1)C13C(OC)CC(O)C4(COC)CN(C)C1C2C(OC)C43 (stereo not shown)
IC50 (cell growth or viability, MTT): 18.8 µM

CN1CCN(c2ccc(Nc3nccc(-c4cn(C5CCCCC5)nn4)n3)cc2)CC1
IC50 (cell growth or viability, SRB; 72 h): > 10 µM

CC(=O)O[C@@H]1CC[C@@]2(C)[C@@H](CC[C@]3(C)[C@@H]2C(=O)C=C2[C@@H]4[C@@H](C)[C@H](C)CC[C@]4(C)CC[C@]23C)[C@@]1(C)C(=O)NCCNC(=O)CCCCC[P+](c1ccccc1)(c1ccccc1)c1ccccc1
IC50 (cell growth or viability, MTT; 48 h): > 30 µM

Cc1ccc2nc(Cl)c(-c3nc4cc(Cl)c(Cl)cc4[nH]3)cc2c1
IC50 (cell growth or viability, MTT; 48 h): > 100 µM

O=C(CCCCCCOc1ccc(Nc2ncc(F)c(-c3cn(C4CCCCC4)nn3)n2)cc1)NO
IC50 (cell growth or viability, SRB; 72 h): 2.05 µM

O=c1[nH]c2ccccc2nc1/C=C/c1ccc2ccccc2n1
IC50 (cell growth or viability, MTT; 72 h): > 50 µM

[NH2][Pt]1([NH2])([Cl])([O]C(=O)C(Cl)Cl)[O]C(=O)C2(CC(=O)C2)C(=O)[O]1
IC50 (cell growth or viability, MTT): > 200 µM

CC(=O)O[C@@H]1CC[C@@]2(C)[C@@H](CC[C@]3(C)[C@@H]2C(=O)C=C2[C@@H]4[C@@H](C)[C@H](C)CC[C@]4(C)CC[C@]23C)[C@@]1(C)C(=O)NCCNC(=O)CCCCCCC[P+](c1ccccc1)(c1ccccc1)c1ccccc1
IC50 (cell growth or viability, MTT; 48 h): > 30 µM

COc1ccc2nc(Cl)c(-c3nc4cc(C)c(C)cc4[nH]3)cc2c1
IC50 (cell growth or viability, MTT; 48 h): 38.2 µM

N#Cc1c(-c2ccc(Cl)cc2)cc(-c2cccc3ccccc23)nc1Nc1ccc(Nc2nc(-c3cccc4ccccc34)cc(-c3ccc(Cl)cc3)c2C#N)cc1
IC50 (cell growth or viability, MTT; 72 h): 0.698 µM

CCC1=C(CC)C2=[N+]3C1=Cc1c(CC)c(CC)c4[n]1[Ir-3]31([Cl])([C]#[O+])[n]3c(c(CC)c(CC)c3=CC3=[N+]1C(=C4)C(CC)=C3CC)=C2
IC50 (cytotoxicity; 1 h, with: visible light 2.8 mW/cm2): 19.7 ± 1 µM

Fc1ccc2[nH]c(-c3cc4cc5c(cc4nc3Cl)OCO5)nc2c1
IC50 (cell growth or viability, MTT; 48 h): > 100 µM

CN1CCN(c2ccc(Nc3ncc(F)c(-c4cn(C5CCCCC5)nn4)n3)cc2)CC1
IC50 (cell growth or viability, SRB; 72 h): 7.35 µM

O=C(O)Cc1ccccc1Nc1c(Cl)cccc1Cl.O=C(O)Cc1ccccc1Nc1c(Cl)cccc1Cl.c1cnc2c(c1)ccc1cccnc12.c1cnc2c(c1)ccc1cccnc12
IC50 (cytotoxicity, MTT): 1.69 ± 0.02 µM

CC(C)Cn1cc(-c2nc(Nc3ccc(OCCCCCCC(=O)NO)cc3)ncc2F)nn1
IC50 (cell growth or viability, SRB; 72 h): 1.72 µM

N#Cc1c(-c2cccs2)cc(-c2cccc3ccccc23)n2c(Cc3ccccc3)nnc12
IC50 (cell growth or viability, MTT; 72 h): 0.869 µM

COc1ccc2nc(Cl)c(-c3nc4cc(Cl)c(Cl)cc4[nH]3)cc2c1
IC50 (cell growth or viability, MTT; 48 h): 21.1 µM

O=C(NCCNc1n[n+]([O-])c2ccccc2[n+]1[O-])C(F)(F)F
IC50 (cytotoxicity, MTT; 24 h, normoxia 20% O2): 44.2 ± 5 µM

Clc1nc2cc3c(cc2cc1-c1nc2cc(Br)ccc2[nH]1)OCO3
IC50 (cell growth or viability, MTT; 48 h): > 100 µM

CC(=O)O[C@@H]1CC[C@@]2(C)[C@@H](CC[C@]3(C)[C@@H]2C(=O)C=C2[C@@H]4[C@@H](C)[C@H](C)CC[C@]4(C)CC[C@]23C)[C@@]1(C)C(=O)NCCNC(=O)c1ccc(C)cc1
IC50 (cell growth or viability, MTT; 48 h): 14.1 µM

COc1ccc(-c2nnc(-c3ccccn3)[nH]2)cc1OC.COc1ccc(-c2nnc(-c3ccccn3)[nH]2)cc1OC.[Cu+2].[O-][Cl+3]([O-])([O-])[O-].[O-][Cl+3]([O-])([O-])[O-]
IC50 (cell growth or viability, MTT; 24 h): 92.8 µM

Clc1ccc2[nH]c(-c3cc4ccccc4nc3Cl)nc2c1
IC50 (cell growth or viability, MTT; 48 h): 22.6 µM

CCCCCC(=O)NCCNC(=O)[C@]1(C)[C@@H]2CC[C@]3(C)[C@H](C(=O)C=C4[C@@H]5[C@@H](C)[C@H](C)CC[C@]5(C)CC[C@]43C)[C@@]2(C)CC[C@H]1OC(C)=O
IC50 (cell growth or viability, MTT; 48 h): 14.5 µM

O=C(NCCCCCCCCNc1n[n+]([O-])c2ccccc2[n+]1[O-])C(F)(F)F
IC50 (cytotoxicity, MTT; 10% FBS medium; 6 h + 18 h, hypoxia 3% O2): 46 ± 24.1 µM

CC(=O)O[C@@H]1CC[C@@]2(C)[C@@H](CC[C@]3(C)[C@@H]2C(=O)C=C2[C@@H]4[C@@H](C)[C@H](C)CC[C@]4(C)CC[C@]23C)[C@@]1(C)C(=O)NCCNC(=O)OC(C)(C)C
IC50 (cell growth or viability, MTT; 48 h): > 30 µM

[Cl][Cu][Cl].c1ccc(-c2nnc(-c3ccc4c(c3)OCO4)[nH]2)nc1
IC50 (cell growth or viability, MTT; 24 h): 4.75 µM

C=C1C2CC3C4N5CC6(C)CCCC47C6C5CC3(C1O)C7C2 (stereo not shown)
IC50 (cell growth or viability, MTT): 24.3 µM

CC(=O)O[C@@H]1CC[C@@]2(C)[C@@H](CC[C@]3(C)[C@@H]2C(=O)C=C2[C@@H]4[C@@H](C)[C@H](C)CC[C@]4(C)CC[C@]23C)[C@@]1(C)C(=O)NCCNC(=O)C1CC1
IC50 (cell growth or viability, MTT; 48 h): 7.25 µM

Cc1cc2nc(-c3cc4cc5c(cc4nc3Cl)OCO5)[nH]c2cc1C
IC50 (cell growth or viability, MTT; 48 h): > 100 µM

CC(=O)O[C@@H]1CC[C@@]2(C)[C@@H](CC[C@]3(C)[C@@H]2C(=O)C=C2[C@@H]4[C@@H](C)[C@H](C)CC[C@]4(C)CC[C@]23C)[C@@]1(C)C(=O)O
IC50 (cell growth or viability, MTT; 48 h): 27.2 µM

O=C(NCCCCCCCNc1n[n+]([O-])c2ccccc2[n+]1[O-])C(F)(F)F
IC50 (cytotoxicity, MTT; 24 h, normoxia 20% O2): 88.7 ± 26.4 µM

CCCCCCCC(=O)NCCNC(=O)[C@]1(C)[C@@H]2CC[C@]3(C)[C@H](C(=O)C=C4[C@@H]5[C@@H](C)[C@H](C)CC[C@]5(C)CC[C@]43C)[C@@]2(C)CC[C@H]1OC(C)=O
IC50 (cell growth or viability, MTT; 48 h): 12.1 µM

Cn1[c]([Ir-3]234([NH3+])[n]5c6ccc5C(c5c(F)c(F)c(F)c(F)c5F)=C5C=CC(=[N+]52)C(c2c(F)c(F)c(F)c(F)c2F)=c2ccc([n]23)=C(c2c(F)c(F)c(F)c(F)c2F)C2=[N+]4C(=C6c3c(F)c(F)c(F)c(F)c3F)C=C2)[n+](C)c2ccccc21.F[P-](F)(F)(F)(F)F
IC50 (cell growth or viability; dark): 0.46 µM

Cc1ccc2nc(Cl)c(-c3nc4cc(F)ccc4[nH]3)cc2c1
IC50 (cell growth or viability, MTT; 48 h): > 100 µM

C=C1C2CCC3(CCC4C5(C)CCCC4(CN(CCO)C5)C3C2)C1O (stereo not shown)
IC50 (cell growth or viability, MTT): 13.6 µM

For quick reference, copied from above:
CC(=O)O[C@@H]1CC[C@@]2(C)[C@@H](CC[C@]3(C)[C@@H]2C(=O)C=C2[C@@H]4[C@@H](C)[C@H](C)CC[C@]4(C)CC[C@]23C)[C@@]1(C)C(=O)O
IC50 (cell growth or viability, MTT; 48 h): 27.2 µM

CN1CCN(c2ccc(Nc3ncc(F)c(-c4cn(C5CCCCC5)nn4)n3)cc2)CC1
IC50 (cell growth or viability, SRB; 72 h): 7.35 µM

COc1ccc2nc(Cl)c(-c3nc4cc(Cl)c(Cl)cc4[nH]3)cc2c1
IC50 (cell growth or viability, MTT; 48 h): 21.1 µM
